# Results of several laboratories.
# Protocols differ between the studies behind these lines. ± marks the error that the study gave.
Compound,system,conditions,half-life
Cn1c(=O)oc2ccc(-c3ccc(CC(C#N)NC(=O)C4CNCCCO4)c(F)c3)cc21 (stereo not drawn),"human, plasma","40 mg once daily, day 28, mean",26.5 h
CONC(=O)/C=C/c1cccc(S(=O)(=O)Nc2ccccc2)c1,"human, severe liver dysfunction, plasma","intravenous, 400 mg/m^2 belinostat, 30 min infusion, cycle 1 day -7",2.22 h
CN1CCC[C@]1(C)/C=C/S(=O)(=O)NC(=O)Nc1c2c(cc3c1CCC3)CCC2,"human, plasma","oral, 250 mg single dose",6.5 h
CCCCCCCOc1ccc(CC[C@](N)(CO)COP(=O)(O)O)cc1C(F)(F)F,"healthy male humans, plasma","oral, 0.125 to 0.75 mg, mean",376 to 404 h
O=C(CCc1ccc(CNC(C(=O)OC2CCCC2)C2CCCCC2)cn1)NO (stereo not drawn),"human, plasma","oral, 50 mg, single dose, geometric mean",0.366 h
O=C(O)/C=C/c1cccc(S(=O)(=O)Nc2ccccc2)c1,"human, normal liver function, plasma","intravenous, 400 mg/m^2 belinostat, 30 min infusion, cycle 1 day -7",2.18 h
Cc1nc(C)c(C=[N+]([O-])C(C)(C)C)nc1C,"healthy Chinese human, both sexes, serum","oral, 600 mg twice daily, 7 days",1.89 h
O=C(O[C@@H]1Cc2c(O)cc(O)cc2O[C@@H]1c1cc(O)c(O)c(O)c1)c1cc(O)c(O)c(O)c1,"human, male, plasma","oral, 135 mg, catechin-rich beverage",2.1 ± 0.46 h
O=C(O)c1cccc(S(=O)(=O)Nc2ccccc2)c1,"human, severe liver dysfunction, plasma","intravenous, 400 mg/m^2 belinostat, 30 min infusion, cycle 1 day -7",4.33 h
CC(=O)N[C@H](CC(=O)O)C(=O)N[C@H](Cc1c[nH]c2ccccc12)C(=O)N[C@H](Cc1ccccc1)C(=O)N[C@H](CCCCN)C(=O)N[C@H](C)C(=O)N[C@H](Cc1ccccc1)C(=O)N[C@H](Cc1ccc(O)cc1)C(=O)N[C@H](CC(=O)O)C(=O)N[C@H](CCCCN)C(=O)N[C@@H](C(=O)N[C@H](C)C(=O)N[C@H](CCC(=O)O)C(=O)N[C@H](CCCCN)C(=O)N[C@H](Cc1ccccc1)C(=O)N[C@H](CCCCN)C(=O)N[C@H](CCC(=O)O)C(=O)N[C@H](C)C(=O)N[C@H](Cc1ccccc1)C(N)=O)C(C)C,"human, statin-treated high-risk CHD, both sexes, plasma","oral, 500 mg daily, day 13, median, detected subjects only",1.88 h
NC(=O)/C=C/c1cccc(S(=O)(=O)Nc2ccccc2)c1,"human, normal liver function, plasma","intravenous, 400 mg/m^2 belinostat, 30 min infusion, cycle 1 day -7",5.08 h
CC(C)(O)c1ncc([S@](N)(=O)=NC(=O)Nc2c3c(cc4c2CCC4)CCC3)s1,"healthy human, fasted","oral, 300 mg single dose, spray-dried dispersion",10.9 h

# Some of these lines once more:
Compound,system,conditions,half-life
Cc1nc(C)c(C=[N+]([O-])C(C)(C)C)nc1C,"healthy Chinese human, both sexes, serum","oral, 600 mg twice daily, 7 days",1.89 h
